Experimental data gathered from unrelated publications.
Parts stem from different laboratories: compare values within a part only.

Set 1 — technique: protein-binding microarray; form: double-stranded DNA, one strand shown; matrix: in vitro; tested at: 250 nM; setting: 60-bp whole probe; together with: salmon DNA 0.4 mg/ml; relative to: random background probes; reading: higher = stronger binding
Target: Interferon regulatory factor 5, full length, phosphomimetic (IRF5, Homo sapiens, UniProt Q13568-2, residues 1-514, K96S/S451D/S453D/S456D/S462D)
Shared flanks, not repeated: GCCTAGCAC … GTGCTAGGTCTTGATTCGCTTGACGCTGCTG
`GACGCTTCCAGTTTCGAGAC` gave a log fluorescence of 5.06 z-score.
The log fluorescence of `TTAGATCTGAGACTGGATTA` is reported as -0.238 z-score.
For `TGTGGGTTTCGGTGTGGGAG`, the log fluorescence was 8.57 z-score.
For `TCATTGTTCTCTCTGGCACT`, the log fluorescence was 0.406 z-score.
With `CAGAGCATGGATCTGGGAAC` the log fluorescence was -0.695 z-score.
`TCTTTTTTTTCTTTAAAAGT` gave a log fluorescence of 1.44 z-score.
`TCAGATTTCCCCACCATACT` gave a log fluorescence of 0.385 z-score.
`TCAAGTTTTCCTCTGTCACT` has a log fluorescence of 0.618 z-score.

Set 2 — technique: RNA Bind-n-Seq; form: RNA; matrix: in vitro; tested at: 200 nM; setting: whole 134-nt RNA, ends assumed; together with: 150 mM LiCl; relative to: input library; reading: higher = stronger binding; library: 7-deaza-guanosine replaces G
Target: Ras GTPase-activating protein-binding protein 1, full length (G3BP1, Homo sapiens, UniProt Q13283)
UniProt Q13283, sequence (whole entry, looked up): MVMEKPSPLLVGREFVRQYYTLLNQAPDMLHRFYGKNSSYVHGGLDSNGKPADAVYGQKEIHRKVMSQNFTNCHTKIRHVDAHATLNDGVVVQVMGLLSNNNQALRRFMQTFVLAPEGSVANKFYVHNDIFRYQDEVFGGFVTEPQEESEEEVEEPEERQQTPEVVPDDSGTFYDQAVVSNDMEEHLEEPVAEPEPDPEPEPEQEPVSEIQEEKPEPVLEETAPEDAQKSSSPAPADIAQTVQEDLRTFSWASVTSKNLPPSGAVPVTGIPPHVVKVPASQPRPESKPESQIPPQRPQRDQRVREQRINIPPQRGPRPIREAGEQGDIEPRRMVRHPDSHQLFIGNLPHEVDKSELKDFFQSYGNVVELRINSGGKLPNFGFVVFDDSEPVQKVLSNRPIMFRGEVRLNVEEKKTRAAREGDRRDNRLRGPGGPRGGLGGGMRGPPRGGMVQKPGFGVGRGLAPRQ
Shared flanks, not repeated: GGGAGUUCUACAGUCCGACGAUC … UGGAAUUCUCGGGUGUCAAGG
`GCAGGAAGUAAAAACAAAUGGAAAUGCUUCGGAUAGUGGCAGGGGUGGGGGUUGCUAAGGAAAGGGUGGGAAAGGAGUGGGUAAAGAGUU` has a log2 enrichment of 0.372.
With `CGCUAAAGAGGAGCACGGUGGACUGAUGUGAGCUUCUCUUCCUGCCCCUUCCUCCCUGAUGUCCACUCCCUUCACCUUCCUCACGCCCGU` the log2 enrichment was 0.863.
`CUCAAGUCCUGUGCUACACAUCGUAUGUACCGAAUCGGUGGAAAAAAAGGUGGAAAGUAUUAUGUUACGCCGUUCGGAUCUGCACUUCCA` has a log2 enrichment of 0.345.
`AGUCCUGUGCUACACAUCGUAUGUACCGAAUCGGGAAAGGGUUUUUGGGAAAAAGGGAAAGUAUUAUGUUACGCCGUUCGGAUCUGCACU` has a log2 enrichment of -1.11.
`ACCAUGCAGGUGGGCAUCUUUGGGAAGUGGGGCAAGGGGGGGAUAGGGAGUGGGGUAACACUUUGGGAACAGGUGGUCCCAGGUCGUUUC` has a log2 enrichment of 0.384.
With `UUAGAUGAGGACCUUGAGAUUGAAUUGGUUGAGGAAGAGCCUCCAUUCCUGAGAGGGCACACUAAGCAAAGCAUGGACAUGAGCCCCAUU` the log2 enrichment was -1.37.

Set 3 — technique: RNA Bind-n-Seq; form: RNA; matrix: in vitro; tested at: not given; relative to: input RNA pool; reading: higher = stronger binding
Target: RING finger protein unkempt homolog, zinc fingers 1-6, GST-SBP tag (UNK, Homo sapiens, UniProt Q9C0B0, residues 30-357)
UniProt Q9C0B0, sequence (30-357, looked up): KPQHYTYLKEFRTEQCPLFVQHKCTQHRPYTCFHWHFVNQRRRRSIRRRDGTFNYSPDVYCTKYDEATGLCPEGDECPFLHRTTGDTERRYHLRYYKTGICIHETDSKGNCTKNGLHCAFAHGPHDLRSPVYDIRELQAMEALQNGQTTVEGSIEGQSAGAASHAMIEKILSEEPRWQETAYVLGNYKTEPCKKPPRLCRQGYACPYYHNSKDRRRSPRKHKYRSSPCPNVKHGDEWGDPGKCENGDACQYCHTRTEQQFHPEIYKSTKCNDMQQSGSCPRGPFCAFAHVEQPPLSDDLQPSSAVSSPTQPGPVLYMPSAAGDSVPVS
Setting: RNA with constant flanks, human-mouse chimeric sites, ends assumed
Shared flanks, not repeated: GGGAGUUCUACAGUCCGACGAUC … CAACAGAGGAUUGAGCAUCA
`AAAGAGUGGAUAGAGUGUGCACACGGGAUCGGUGGGACCCGGGCGAAAAAGGAGUGCAAGAUAGAGUUCGAUGACUUCGAAGAGUGCUUGCUUCGGCACAAAACGAUGAGACGUGCACAU` has a bound/input enrichment of 0.267 ratio.
The bound/input enrichment of `CGCUGGCCCAAGCUGAUGGACUCUGAUGGCCUCCAUCUCUCAGGCACGUGUGCCUUCUCUUAGUCCCUUCUGGGUUGAUGUUAUGAAUCUCAGUACUGUUUGACAGAAGCACCAGCUUUG` is reported as 0.309 ratio.
`AACAGAUUGUCUUUAAGCAUUCCAAGCGAGAAUGCUGAAAUAGUCAUUGUUGCCCAUGUGCCUUCUGACUGAGCUUUAAUGCUGUUCCAUGUUACAUUGAUGUUCUUCUCCAGAAUUGUU` gave a bound/input enrichment of 0.213 ratio.
For `CGGAGCCCUCCUCUCCCACAGGCCCAAGAUAUAACCCACCAGUGCCUUUUGUCUUCCCGUUAGCUUUGUCAAUCACGCCUGUCCUCUGUCCCUCUCACCAAGUGCCCAAAGUGGGGAGGG`, the bound/input enrichment was 11.1 ratio.
The bound/input enrichment of `UACUCAACUUUCUUUCCACAUUUUGAAUUCCAAGACAUUAUUCCUCCAGAUGACUUCCUAACGAGUGAUGAAGAGCAAGAUUUGGUUUUAUUUGGAAGUUUGAGAGGACAAGUUGUUGGA` is reported as 0.195 ratio.
With `GUCAACAGCUGCCUCAACCCCAUCCUCUACGCCUUCCUGGAUGAGAACUUCAAGGCCUGCUUUAGAAAGUUCUGCUGUGCAUCUGCCCUGCACCGGGACGUGCAGGUGUCUGACCGCGUG` the bound/input enrichment was 0.359 ratio.

Set 4 — technique: RNAcompete; form: RNA; matrix: in vitro; tested at: 20 nM; setting: 7-mer, probes averaged, single round; relative to: mean of 7-mers; reading: higher = stronger binding
Target: PABPC1L2, full length, GST fusion (mouse, UniProt A0ABA7IW68)
Target sequence (chain): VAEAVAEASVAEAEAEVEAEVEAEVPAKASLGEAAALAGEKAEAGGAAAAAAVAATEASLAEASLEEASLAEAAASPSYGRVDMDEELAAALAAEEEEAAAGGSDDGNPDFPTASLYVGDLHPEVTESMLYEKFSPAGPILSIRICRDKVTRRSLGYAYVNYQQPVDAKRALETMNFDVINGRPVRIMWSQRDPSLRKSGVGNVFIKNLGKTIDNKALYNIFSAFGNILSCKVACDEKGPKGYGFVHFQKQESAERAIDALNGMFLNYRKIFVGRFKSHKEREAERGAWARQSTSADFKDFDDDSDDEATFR
`UUCCCGA` has a 7-mer Z-score of -0.398.
With `CACGAUG` the 7-mer Z-score was -0.0591.
`UCUCCCG` has a 7-mer Z-score of -0.358.
With `CCCAGAG` the 7-mer Z-score was -0.0953.
For `AAAAGCC`, the 7-mer Z-score was 3.71.
With `GGGUCAU` the 7-mer Z-score was 0.137.
For `GCGGCCA`, the 7-mer Z-score was 0.0261.
For `AAUUGUC`, the 7-mer Z-score was 0.017.
`ACAGAGC` gave a 7-mer Z-score of 0.182.
For `UUUCUUG`, the 7-mer Z-score was -0.362.

Set 5 — technique: RNA Bind-n-Seq; form: RNA; matrix: in vitro; tested at: 365 nM; relative to: no-protein control; reading: higher = stronger binding
Target: RNA binding protein fox-1 homolog 2, RRM domain, GST-SBP tag (RBFOX2, Homo sapiens, UniProt O43251-10, residues 100-194)
Setting: natural RNA segment, single round, ends assumed
Shared flanks, not repeated: GGGAGUUCUACAGUCCGACGAUC … UGGAAUUCUCGGGUGCCAA
Target sequence (chain): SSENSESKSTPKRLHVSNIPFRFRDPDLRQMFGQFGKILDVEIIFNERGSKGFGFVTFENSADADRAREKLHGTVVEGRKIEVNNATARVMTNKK
Under “RBNS enrichment (R)”, `ACUUCCUUCCCAAAGAAAAUAGAUCCUCCAUGCAGGAUCUAGGAGAGUGACUGGGUGUGCCAAAAUAUGCCCAGGGUCCUGCCCUCAGCACUAGAUUUAAUGGGGCCAAG` is recorded as 0.416.
Under “RBNS enrichment (R)”, `AAAGUUGAGACUACUCAAUCCAGUUAACAACAGCAGGAGCACUAGAGUUUGUUCAUUUAUUCUCUCUGUAAAACAAGCUGUGCUUUUUUUCUUCUGCCUUUAAAAUGCCA` is recorded as 0.578.
Under “RBNS enrichment (R)”, `UUGCACAUGCUAGGCAAGCUCUCUACCCUGAGCUACGUACAUCCUAGCCCUUAGAACUACCACCCUGAAGCAUCUUUGUUUCCUGUGUUCAGACGCAGACGAAGACCAAC` is recorded as 0.332.
`GGAGGUGGAGGGAAGCUAAGCAAUAGACAGGAGCCGUCACAGGAAGUCACUGGCAAUACGGGUUUAAAGCAGGUACUUAGAUCACGGUUUUCUCUGUAAGAAAAUAUGGC` — result for “RBNS enrichment (R)”: 0.596.
For `CAAAGCAUGUGAAUUCUGGCAUUAGCUCUCAUAGGAGACCCAUGUGCUUCCUUGCUCAGUGCAAAACUGAUGAUUCUACUUGCUGUAGAUGAAUGGUUAACACGAGCUAG`, “RBNS enrichment (R)” read 4.2.
For `AUUAAAAAAAUCAAAAUAAUAUUCUGUGACAAUGACAGGUGAAAUUUAUAUGUGACAAGUGAAAAUUAUAUGAAAUUUAAGAGUCCAUAAAUAAAAUUUGUUGGAACACA`, “RBNS enrichment (R)” read 0.764.
Under “RBNS enrichment (R)”, `UUUGCCCGAUGGAUUUUGAAAACAUUUAAAAAAAAAAAAAAAAAGCCUUAUCUUGUGGCCUUCCAAAAUAGGUUGUUUGCCUGUGUGGAGACAACAGUGCGGGAGUCCUG` is recorded as 0.638.
`UAAUCCUUGAAUAUUAGUAAGGUCCAGGAAAGUUACCAGCUGAUGGCGGAGUGAAGCUCAGCUCGGUGGUCGCUCAGAGCAGCCAGUGGUCCCCUCUGCUCUGUUCCCUC` — result for “RBNS enrichment (R)”: 0.37.
Under “RBNS enrichment (R)”, `CAGAGGAUUAUUUUCCUGCCUUGGCAGAGGAGGAGGAGUCAAGGGAGCAGGGCAGCUCUACCAGGCAAGGUGUUUCCCCAGCAUAGGCGCAGACAGUUGGGACGAAACUU` is recorded as 0.663.
Under “RBNS enrichment (R)”, `CAUCUGGCUUUCUCAGCCACUGUUCAUCACCAGGGGUUUUAGGAGGAAGGCUUGGCUCCUGUCUUCCCAGACCCACCAUGCCUGGAGAGGUCAGGAUGGAACUACCUCAU` is recorded as 0.326.

Set 6 — technique: universal PBM; form: double-stranded DNA, one strand shown; matrix: in vitro; tested at: 600 nM; reading: higher = stronger binding
Target: Sal-like protein 4, full length isoform A (SALL4, Homo sapiens, UniProt Q9UJQ4, residues 1-1053)
UniProt Q9UJQ4, sequence (whole entry, looked up): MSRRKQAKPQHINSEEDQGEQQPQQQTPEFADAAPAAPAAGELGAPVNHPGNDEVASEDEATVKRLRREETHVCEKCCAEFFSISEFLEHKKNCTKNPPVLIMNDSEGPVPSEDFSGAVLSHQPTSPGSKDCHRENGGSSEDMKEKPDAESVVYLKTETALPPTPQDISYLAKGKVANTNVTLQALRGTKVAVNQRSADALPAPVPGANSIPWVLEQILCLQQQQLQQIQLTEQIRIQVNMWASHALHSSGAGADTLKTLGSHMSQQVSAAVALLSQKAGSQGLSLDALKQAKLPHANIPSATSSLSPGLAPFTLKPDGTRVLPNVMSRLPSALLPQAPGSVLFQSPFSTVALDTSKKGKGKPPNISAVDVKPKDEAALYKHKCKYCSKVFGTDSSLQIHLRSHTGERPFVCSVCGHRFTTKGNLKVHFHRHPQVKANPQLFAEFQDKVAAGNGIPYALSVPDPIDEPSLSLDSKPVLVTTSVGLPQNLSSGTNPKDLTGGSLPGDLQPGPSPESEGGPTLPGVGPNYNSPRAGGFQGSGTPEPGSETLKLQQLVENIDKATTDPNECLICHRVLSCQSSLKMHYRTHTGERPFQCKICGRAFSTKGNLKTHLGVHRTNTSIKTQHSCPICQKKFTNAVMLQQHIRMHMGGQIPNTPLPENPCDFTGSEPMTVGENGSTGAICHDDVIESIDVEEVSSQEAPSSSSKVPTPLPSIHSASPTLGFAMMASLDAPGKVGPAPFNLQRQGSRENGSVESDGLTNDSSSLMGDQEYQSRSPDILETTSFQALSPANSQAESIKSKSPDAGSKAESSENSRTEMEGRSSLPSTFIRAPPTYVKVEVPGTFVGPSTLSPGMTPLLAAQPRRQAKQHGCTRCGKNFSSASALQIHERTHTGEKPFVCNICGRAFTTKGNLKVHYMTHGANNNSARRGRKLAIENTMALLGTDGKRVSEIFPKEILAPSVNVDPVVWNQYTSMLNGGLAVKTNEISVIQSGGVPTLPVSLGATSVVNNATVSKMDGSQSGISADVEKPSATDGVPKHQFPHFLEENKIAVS
Setting: 8-mer, flanks averaged, mean of replicates
For `GGTTAGCA`, the E-score was -0.0857.
`CGATTAGA` has an E-score of 0.0908.
For `AAACGGGC`, the E-score was -0.134.
With `AACTTGGA` the E-score was -0.0271.
With `AGTCCAGG` the E-score was -0.228.
The E-score of `ACTTGAGC` is reported as -0.103.
The E-score of `GAATACTC` is reported as 0.0979.
The E-score of `CCGCGGTA` is reported as -0.178.
With `CCGAGTTC` the E-score was -0.101.
With `ATCGTACC` the E-score was -0.128.
`AATTTAAA` gave an E-score of 0.319.
For `TGGAGTAA`, the E-score was 0.196.
The E-score of `CCCGGGTA` is reported as -0.322.
`AGCCGTAA` gave an E-score of 0.0214.

Set 7 — technique: protein binding microarray; form: double-stranded DNA, one strand shown; matrix: in vitro; tested at: not given; relative to: not given; reading: higher = stronger binding
Target: Histone acetyltransferase KAT6A, winged helix 2, GST fusion (KAT6A, Homo sapiens, UniProt Q92794, residues 85-181)
Setting: 8-mer, flanks averaged, mean of 2 arrays, mostly near background
Target sequence (chain): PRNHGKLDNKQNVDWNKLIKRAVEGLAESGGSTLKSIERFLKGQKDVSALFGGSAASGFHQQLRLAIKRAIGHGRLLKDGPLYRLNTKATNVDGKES
The E-score of `CGTCTCAA` is reported as -0.0681.
With `ATTTACTC` the E-score was 0.101.
The E-score of `ATTCCACC` is reported as 0.0421.
`GGCACAAA` gave an E-score of 0.024.
The E-score of `CACCATCG` is reported as -0.0944.
`ATAGGTAG` gave an E-score of -0.296.
With `CGTATCGA` the E-score was -0.231.
With `ATACCCTG` the E-score was 0.00984.
For `ACTTCTCT`, the E-score was -0.0965.
`GAACGTCC` gave an E-score of -0.0533.
`GATCCTTA` has an E-score of -0.215.
With `GAGAAAGC` the E-score was 0.132.
`GTGAACAC` gave an E-score of -0.0886.
`ACTTTGCT` gave an E-score of -0.0108.
With `GGTTGAAC` the E-score was 0.0939.

A few entries again (set 4):
`UUCCCGA` has a 7-mer Z-score of -0.398.
With `CACGAUG` the 7-mer Z-score was -0.0591.
`UCUCCCG` has a 7-mer Z-score of -0.358.
With `CCCAGAG` the 7-mer Z-score was -0.0953.
For `AAAAGCC`, the 7-mer Z-score was 3.71.
With `GGGUCAU` the 7-mer Z-score was 0.137.
For `GCGGCCA`, the 7-mer Z-score was 0.0261.
For `AAUUGUC`, the 7-mer Z-score was 0.017.
`ACAGAGC` gave a 7-mer Z-score of 0.182.
For `UUUCUUG`, the 7-mer Z-score was -0.362.
